Published values from different studies.
Protocols differ between the studies behind these lines.
Organism: Escherichia coli

SMILES	test	test system	setting	scale	quantity	result
CC[C@H](C)[C@H](NC(=O)[C@H](CS)NC(=O)[C@@H](NC(=O)[C@@H]1CCCN1C(=O)[C@H](Cc1ccccc1)NC(=O)[C@H](CC(N)=O)NC(=O)[C@@H](NC(=O)[C@H](CC(=O)O)NC(=O)CCNC(=O)CNC(=O)O[C@H]1CC[C@@]2(C)C(=CC[C@H]3[C@@H]4CC[C@H]([C@H](C)CCCC(C)C)[C@@]4(C)CC[C@@H]32)C1)[C@@H](C)O)[C@@H](C)CC)C(=O)N[C@@H](Cc1ccccc1)C(N)=O	–	mouse, bronchoalveolar lavage fluid	intratracheal, 25 nmol per mouse, 12 h	–	amphiregulin protein level	increased
CCCCCCCCCC1N=C(N)N=C(N)N1c1ccccc1C.Cl (racemic)	broth microdilution	ATCC 25922	together with: 7.4 mg/mL thymidine	–	MIC90	64 µM
Cc1ccc2ccc3ccc(C)nc3c2n1.Cc1ccc2ccc3ccc(C)nc3c2n1.O.[Cl-].[Cl-].[Cl-].[Yb+3]	–	–	5 mg/mL	–	zone of inhibition	38 mm
Fc1ccc2nc3c4cccnc4c4ncccc4c3nc2c1.[Cl-].[Cl-].[Ru+2].c1ccncc1.c1ccncc1.c1ccncc1.c1ccncc1	–	–	LED irradiation 470 nm	–	MIC90	16 µM
c1ccc(CN2CCOCCOCCN(CCCCCCCCCCCCCCN3CCOCCOCCN(CCCCCCCCCCCCCCN4CCOCCOCCN(Cc5ccccc5)CCOCCOCC4)CCOCCOCC3)CCOCCOCC2)cc1	checkerboard	tetracycline-resistant	together with: tetracycline	–	concentration restoring tetracycline activity	500 nM
[Cl-].[Cl][Ru-4]123([n+]4ccccc4-c4cccc([n+]41)-c1cccc[n+]12)[n+]1ccc(-c2ccccc2)c2ccc4c(-c5ccccc5)cc[n+]3c4c21	bacterial cytological profiling	BL21(DE3)	MIC, 24 h	–	average filament length	39 µm
CC(=O)N[C@H]1[C@H](Oc2ccccc2-c2cccc(C(=O)O)c2)O[C@H](CO)[C@H](O)[C@@H]1O	–	UPEC CFT073, C3H/HeN mice, chronic cystitis, kidney	transurethral, 50 mg/kg, 6 h posttreatment	relative to: vehicle	bacterial burden	decreased
CCN1CCN(Cn2nc(C34CC5CC(CC(C5)C3)C4)n(-c3ccccc3)c2=S)CC1	–	IFO 3301	200 µg/disc, 24 h, 37 °C	–	inhibition zone diameter	< 10 mm
Cc1cc(O)c2c(c1)C(=O)c1cc3oc(=O)cc(-c4ccccc4)c3c(O)c1C2=O	–	MTCC 739	100 µg/disc	–	inhibition zone diameter	12 mm
CC[C@@H](C)[C@@H](NC(=O)[C@@H](Cc1c[nH]c2ccccc12)NC(=O)[C@H](N)CCCNC(=N)N)C(=O)N[C@H](CCCNC(=N)N)C(=O)N[C@H](Cc1c[nH]c2ccccc12)C(=O)N[C@@H](C(=O)N[C@H](Cc1c[nH]c2ccccc12)C(=O)N[C@H](CCCNC(=N)N)C(=O)N[C@H](CCCCN)C(=O)N[C@H](CCCCN)C(=O)N[C@H](CC(C)C)C(=O)N[C@H](CCCNC(=N)N)C(N)=O)C(C)C	checkerboard	ATCC 25922	unit not given, together with: 10-N-nonyl acridine orange	lower = stronger synergy	FICI	1
CC(=O)[O-].O.O.O.O.[Co+2].[O-]c1ccc(Br)cc1C=NCCN1CCOCC1	–	–	20 µL of 100 µM per disc	–	inhibition zone diameter	17 mm
CCCCCCCCCCCCCCCC(=O)N[C@@H](CCN)C(=O)N[C@H](C(=O)N[C@@H](CCN)C(=O)N[C@H]1CCNC(=O)[C@H]([C@@H](C)O)NC(=O)[C@H](CCN)NC(=O)[C@H](CCN)NC(=O)[C@H](CC(C)C)NC(=O)[C@@H](CC(C)C)NC(=O)[C@H](CCN)NC1=O)[C@@H](C)O	–	–	6 µg/mL	–	biofilm eradication	> 80%
c1ccc(CN2CCOCCOCCN(CCCCCCCCN3CCOCCOCCN(CCCCCCCCN4CCOCCOCCN(Cc5ccccc5)CCOCCOCC4)CCOCCOCC3)CCOCCOCC2)cc1	–	tetracycline-resistant	1/4 MIC, together with: tetracycline	–	FIC index	< 0.5

Some of these lines once more:
SMILES	test	test system	setting	scale	quantity	result
Fc1ccc2nc3c4cccnc4c4ncccc4c3nc2c1.[Cl-].[Cl-].[Ru+2].c1ccncc1.c1ccncc1.c1ccncc1.c1ccncc1	–	–	LED irradiation 470 nm	–	MIC90	16 µM
CC[C@H](C)[C@H](NC(=O)[C@H](CS)NC(=O)[C@@H](NC(=O)[C@@H]1CCCN1C(=O)[C@H](Cc1ccccc1)NC(=O)[C@H](CC(N)=O)NC(=O)[C@@H](NC(=O)[C@H](CC(=O)O)NC(=O)CCNC(=O)CNC(=O)O[C@H]1CC[C@@]2(C)C(=CC[C@H]3[C@@H]4CC[C@H]([C@H](C)CCCC(C)C)[C@@]4(C)CC[C@@H]32)C1)[C@@H](C)O)[C@@H](C)CC)C(=O)N[C@@H](Cc1ccccc1)C(N)=O	–	mouse, bronchoalveolar lavage fluid	intratracheal, 25 nmol per mouse, 12 h	–	amphiregulin protein level	increased
